Published values collected from several papers.
± gives the spread as reported.
MAPK8: MAPK8, pT183, pY185 (Homo sapiens, UniProt P45983)
KDM5A: KDM5A 287-347 (Homo sapiens, UniProt P29375)
B1: NECTIN2 32-360 (Homo sapiens, UniProt Q92692); chain QDVRVQVLPEVRGQLGGTVELPCHLLPPVPGLYISLVTWQRPDAPANHQNVAAFHPKMGPSFPSPKPGSERLSFVSAKQSTGQDTEAELQDATLALHGLTVEDEGNYTCEFATFPKGSVRGMTWLRVIAKPKNQAEAQKVTFSQDPTTVALCISKEGRPPARISWLSSLDWEAKETQVSGTLAGTVTVTSRFTLVPSGRADGVTVTCKVEHESFEEPALIPVTLSVRYPPEVSISGYDDNWYLGRTDATLSCDVRSNPEPTGYDWSTTSGTFPTSAVAQGSQLVIHAVDSLFNTTFVCTVTNAVGMGRAEQVIFVRETPNTAGAGATGG
B2: SEMA4D 22-677 K395D (Homo sapiens, UniProt Q92854); chain MAFAPIPRITWEHREVHLVQFHEPDIYNYSALLLSEDKDTLYIGAREAVFAVNALNISEKQHEVYWKVSEDKKAKCAEKGKSKQTECLNYIRVLQPLSATSLYVCGTNAFQPACDHLNLTSFKFLGKNEDGKGRCPFDPAHSYTSVMVDGELYSGTSYNFLGSEPIISRNSSHSPLRTEYAIPWLNEPSFVFADVIRKSPDSPDGEDDRVYFFFTEVSVEYEFVFRVLIPRIARVCKGDQGGLRTLQKKWTSFLKARLICSRPDSGLVFNVLRDVFVLRSPGLKVPVFYALFTPQLNNVGLSAVCAYNLSTAEEVFSHGKYMQSTTVEQSHTKWVRYNGPVPKPRPGACIDSEARAANYTSSLNLPDKTLQFVDDHPLMDDSVTPIDNRPRLIKKDVNYTQIVVDRTQALDGTVYDVMFVSTDRGALHKAISLEHAVHIIEETQLFQDFEPVQTLLLSSKKGNRFVYAGSNSGVVQAPLAFCGKHGTCEDCVLARDPYCAWSPPTATCVALHQTESPSRGLIQEMSGDASVCPDKSKGSYRQHFFKHGGTAELKCSQKSNLARVFWKFQNGVLKAESPKYGLMGRKNLLIFNLSEGDSGVYQCLSEERVKNKTVFQVVAKHVLEVKVVPKPVVAPTLSVVQTEGSRIATKVLVAST
B3: Ric8b 1-483 N123A (Mus musculus, UniProt Q80XE1); chain MDEERALYIVRAGEAGAIERVLRDYSDKHRATFKFESADEDKRKKLCEGIFKVLVKEVPTTCQVSCLEVLRILSRDKKILVPVTTKENMQILLRLAKLHESDDSLEKVSEFPVIVESLKCLCAIVFNSQMAQQLSLELNLAAKLCNLLRKCKDRKFINDIKCFDLRLLFVLSLLHTDIRSQLRYELQGLPLLTQILESAFSIKWTDEYESAIDHNGPPLSPQETDCAIEALKALFNVTVDSWKVHKESDSHQFRVMAAVLRHCLLIVGPTEDKTEELHSNAVNLLSNVPVSCLDVLICPLTHEETAQEAATLDELPSDKTTEKDTALKNSTMVYNGMNMEAIHVLLNFMEKRIDKGSSYREGLTPVLSLLTECSRAHRNIRKFLKDQVLPPLRDVTNRPEVGSTVRNKLVRLMTHVDLGVKQIAAEFLFVLCKERVDSLLKYTGYGNAAGLLAARGLLAGGRGDNWYSEDEDTDTEEYKNAKP
B4: CPEB3 (Homo sapiens, UniProt Q8NE35); sequence looked up; chain MQDDLLMDKSKTQPQPQQQQRQQQQPQPESSVSEAPSTPLSSETPKPEENSAVPALSPAAAPPAPNGPDKMQMESPLLPGLSFHQPPQQPPPPQEPAAPGASLSPSFGSTWSTGTTNAVEDSFFQGITPVNGTMLFQNFPHHVNPVFGGTFSPQIGLAQTQHHQQPPPPAPAPQPAQPAQPPQAQPPQQRRSPASPSQAPYAQRSAAAAYGHQPIMTSKPSSSSAVAAAAAAAAASSASSSWNTHQSVNAAWSAPSNPWGGLQAGRDPRRAVGVGVGVGVGVPSPLNPISPLKKPFSSNVIAPPKFPRAAPLTSKSWMEDNAFRTDNGNNLLPFQDRSRPYDTFNLHSLENSLMDMIRTDHEPLKGKHYPPSGPPMSFADIMWRNHFAGRMGINFHHPGTDNIMALNNAFLDDSHGDQALSSGLSSPTRCQNGERVERYSRKVFVGGLPPDIDEDEITASFRRFGPLVVDWPHKAESKSYFPPKGYAFLLFQEESSVQALIDACLEEDGKLYLCVSSPTIKDKPVQIRPWNLSDSDFVMDGSQPLDPRKTIFVGGVPRPLRAVELAMIMDRLYGGVCYAGIDTDPELKYPKGAGRVAFSNQQSYIAAISARFVQLQHNDIDKRVEVKPYVLDDQMCDECQGTRCGGKFAPFFCANVTCLQYYCEYCWASIHSRAGREFHKPLVKEGGDRPRHVPFRWS
B5: Prkcd (Rattus norvegicus, UniProt P09215); sequence looked up; chain MAPFLRISFNSYELGSLQAEDDASQPFCAVKMKEALTTDRGKTLVQKKPTMYPEWKSTFDAHIYEGRVIQIVLMRAAEDPMSEVTVGVSVLAERCKKNNGKAEFWLDLQPQAKVLMCVQYFLEDGDCKQSMRSEEEAMFPTMNRRGAIKQAKIHYIKNHEFIATFFGQPTFCSVCKEFVWGLNKQGYKCRQCNAAIHKKCIDKIIGRCTGTATNSRDTIFQKERFNIDMPHRFKVYNYMSPTFCDHCGTLLWGLVKQGLKCEDCGMNVHHKCREKVANLCGINQKLLAEALNQVTQKASRKPETPETVGIYQGFEKKTAVSGNDIPDNNGTYGKIWEGSNRCRLENFTFQKVLGKGSFGKVLLAELKGKERYFAIKYLKKDVVLIDDDVECTMVEKRVLALAWENPFLTHLICTFQTKDHLFFVMEFLNGGDLMFHIQDKGRFELYRATFYAAEIICGLQFLHGKGIIYRDLKLDNVMLDKDGHIKIADFGMCKENIFGENRASTFCGTPDYIAPEILQGLKYSFSVDWWSFGVLLYEMLIGQSPFHGDDEDELFESIRVDTPHYPRWITKESKDIMEKLFERDPAKRLGVTGNIRLHPFFKTINWNLLEKRKVEPPFKPKVKSPSDYSNFDPEFLNEKPQLSFSDKNLIDSMDQTAFKGFSFVNPKYEQFLE
B6: EnvC 278-419 Y350A (Escherichia coli, UniProt P37690); chain STESEKSLMSRTGGLGAPRGQAFWPVRGPTLHRYGEQLQGELRWKGMVIGASEGTEVKAIADGRVILADWLQGAGLVVVVEHGKGDMSLYGYNQSALVSVGSQVRAGQPIALVGSSGGQGRPSLYFEIRRQGQAVNPQPWLGR

Substance | partner | test | test system | setting | how to read | quantity | value
YASPSRRRKLSLNIPI (RASGRF1 D-site peptide (Homo sapiens)) | MAPK8 | kinase activity, inhibitor, competitive kinase inhibition assay | peptide | added: ATP 1 mM | – | IC50 | 1100 nM
Prickle2 (Mus musculus, UniProt Q80Y24) | Vangl2 (Mus musculus, UniProt Q91ZD4) | co-IP | HEK293T | 1.0 µg | relative to: control, higher = more E-cadherin | E-cadherin coprecipitated | 0.28 a.u.
FLNA (Homo sapiens, UniProt P21333) | ACTA1 F-actin (Oryctolagus cuniculus, UniProt P68135) | co-sedimentation | – | two-site fit, apparent | – | actin per FLNa subunit, high avidity site | 46 mol/mol
WSHWSP (THBS1 residues 438-443 (Homo sapiens)) | FN1 intact plasma (Homo sapiens) | competition with coated peptide, radioligand binding | peptide | – | – | IC50 | > 300000 nM
B1 (NECTIN2 32-360) | PVRIG extracellular domain 41-171 (Homo sapiens, UniProt Q6DKI7) | SEC-MALS | – | – | – | molecule per partner | 1
ARVKWTARKS (Histone H3.1 2-11 T3V/Q5W (Homo sapiens, UniProt P68431); sequence looked up) | KDM5A | competition with labeled peptide, fluorescence polarisation | peptide | added: H3 peptide | – | Ki | 15600 nM
B2 (SEMA4D 22-677 K395D) | PLXNB1 20-535 (Homo sapiens, UniProt O43157) | SPR | – | – | relative to: wild type, higher = weaker binding | fold weaker binding | > 200 fold
Spz-1 fragment (Manduca sexta) | Toll 13-963 (Manduca sexta, UniProt A4GVU0) | drosomycin promoter reporter | S2 cells | – | relative to: control, higher = more activity | relative luciferase activity | 25 fold
ARTKRTARKS (Histone H3.1 2-11 Q5R (Homo sapiens, UniProt P68431); sequence looked up) | KDM5A | competition with labeled peptide, fluorescence polarisation | peptide | added: H3 peptide | – | Ki | 620 nM
ACTN1 fragment (Homo sapiens) | TNFRSF10A (Homo sapiens, UniProt O00220) | two-hybrid | – | – | higher = stronger interaction | β-galactosidase activity | 0.01 ± 0.01 Miller units
CYB5A holo (Homo sapiens, UniProt P00167) | CYP3A4 N-terminally truncated K421A (Homo sapiens, UniProt P08684) | testosterone 6β-hydroxylation | – | added: CPR | relative to: without b5, higher = greater b5 stimulation | catalytic efficiency ratio | 1.7
FGF2 (Homo sapiens, UniProt P09038) | FGFR3 isoform IIIc (unknown, UniProt Q61851) | cell proliferation, MTT | BaF3-FGFR3c | 20 nM, 48 h, added: chondroitin sulfate B 4.9 µg/mL | relative to: FGF 1 with heparin, higher = more proliferation | cell proliferation | 74%
B3 (Ric8b 1-483 N123A) | GNAL 1-381 (Homo sapiens, UniProt P38405) | luminescence | RIC-8B knockout HEK293T | – | relative to: wild-type Ric-8B, higher = more folding | sensor folding | 8%
B4 (CPEB3) | Stat5b (Mus musculus, UniProt P42232) | reporter gene | 293T | – | relative to: WT Stat5b, higher = more activation | transactivation | 2.2 fold
C3a (Homo sapiens, UniProt P01024) | C3AR1 (Homo sapiens, UniProt Q16581) | PWV shift, agonist, label-free photonic crystal biosensor | RBL-2H3, DMEM + 10% FBS | – | – | EC50 | 1.8 nM
HDAC6 (Homo sapiens, UniProt Q9UBN7) | PPP1R12A (Homo sapiens, UniProt O14974) | MYPT1 coimmunoprecipitated with MLC, competitor, co-IP | HFF lysate | – | relative to: control, higher = more MYPT1 pulled down | relative binding | 0.87

Substance | partner | test | test system | setting | how to read | quantity | value
bradykinin mature (UniProt P01042) | BDKRB2 (Homo sapiens, UniProt P30411) | time-lapse | D54-MG-GFP | 5 h | relative to: control, higher = more migration | distance travelled increase | 28.8%
cyp102A1 flavin reductase domain (Bacillus megaterium) | CYP3A4 del3-12 (Homo sapiens, UniProt P08684) | BMR-dependent reduction | nanodiscs | no substrate | – | slow phase rate constant | 0.0024 s⁻¹
EPB41 fragment (Homo sapiens) | SLC9A1 residues 506-575 (Rattus norvegicus) | resonant mirror detection | – | pH 8.5 | – | fold increase of Kd | > 20 times
Bcar1, phosphotyrosine (Rattus norvegicus, UniProt Q63767) | Ptk2, serine dephosphorylated (Rattus norvegicus, UniProt O35346) | pull-down | – | 30 min, 4 °C | relative to: untreated mitotic FAK, higher = more CAS bound | relative binding | > 3 fold
YAKRKRKKREKLILTL (WDR3 D-site peptide (Homo sapiens)) | MAPK8 | kinase activity, inhibitor, competitive kinase inhibition assay | peptide | added: ATP 1 mM | – | IC50 | 900 nM
ATTKYISYQSLKRNSVPCSRRGASYYNCQNGAQANPYSRGCSKIARCRS (RALF1 mature (Arabidopsis thaliana, UniProt Q9SRY3); sequence looked up) | FER (Arabidopsis thaliana, UniProt Q9SCZ4) | AHA2 Ser899 phosphorylation, quantitative phosphoproteomics | peptide, Arabidopsis seedlings, plasma membranes | 1 µM, 5 min | relative to: untreated, higher = more phosphorylation | phosphopeptide abundance | 4.3 fold
B5 (Prkcd) | Slc1a5 (Rattus norvegicus, UniProt D3ZJ25) | co-IP | primary rat astrocytes | 4 h, added: Mn(II) 500 µM | relative to: control, higher = more PKCδ | co-precipitated PKCδ | 5.34 fold
ELANE (Homo sapiens, UniProt P08246) | F2RL1 (Homo sapiens, UniProt P55085) | impedance response | 16HBE14o− | – | – | EC50 | 300 nM
CCL21 (UniProt O00585) | ACKR4 (Homo sapiens, UniProt Q9NPB9) | β-galactosidase activity, agonist, EFC | CHO-CCX-CKR | added: wild-type CXCL12 | – | pEC50 | 8.7
Sptan1 (Mus musculus) | Kifap3 209-384 (Mus musculus, UniProt P70188) | two-hybrid | – | – | higher = stronger interaction | β-galactosidase activity | 234 U
B6 (EnvC 278-419 Y350A) | AmiB (Escherichia coli) | dye release from labelled sacculi, activator | – | 1 µM | relative to: wild-type, higher = more activation | AmiB activation | 22.3%
clpP mature, wild type (Escherichia coli, UniProt P0A6G7) | clpA (Escherichia coli, UniProt P0ABH9) | ATPase stimulation, activator | – | – | – | Kapp | 20 nM
TMC1 (Homo sapiens, UniProt Q8TDI8) | KCNQ1 (Homo sapiens, UniProt P51787) | surface biotinylation, western blot | CHO | in cells | higher = more surface TMC1 | surface expression | > 10 fold
ferredoxin 3 (Magnetococcus marinus) | 2-oxoglutarate:ferredoxin oxidoreductase αβ heterodimer (Magnetococcus marinus) | 2-oxoglutarate formation | – | electron donor, added: ferredoxin | – | CO2 reduction activity | 8.1 min⁻¹
PTPRZ1 Fc fusion extracellular C, F, S domains | Nrcam (Mus musculus, UniProt Q810U4) | neurite outgrowth | cerebellar cells | added: anti-Nr-CAM Fab' 100 µg/mL | relative to: control without Fab', higher = more outgrowth | neurite outgrowth | 50%

For quick reference, copied from above:
Substance | partner | test | test system | setting | how to read | quantity | value
B1 (NECTIN2 32-360) | PVRIG extracellular domain 41-171 (Homo sapiens, UniProt Q6DKI7) | SEC-MALS | – | – | – | molecule per partner | 1
ARVKWTARKS (Histone H3.1 2-11 T3V/Q5W (Homo sapiens, UniProt P68431); sequence looked up) | KDM5A | competition with labeled peptide, fluorescence polarisation | peptide | added: H3 peptide | – | Ki | 15600 nM
B2 (SEMA4D 22-677 K395D) | PLXNB1 20-535 (Homo sapiens, UniProt O43157) | SPR | – | – | relative to: wild type, higher = weaker binding | fold weaker binding | > 200 fold
Spz-1 fragment (Manduca sexta) | Toll 13-963 (Manduca sexta, UniProt A4GVU0) | drosomycin promoter reporter | S2 cells | – | relative to: control, higher = more activity | relative luciferase activity | 25 fold
ARTKRTARKS (Histone H3.1 2-11 Q5R (Homo sapiens, UniProt P68431); sequence looked up) | KDM5A | competition with labeled peptide, fluorescence polarisation | peptide | added: H3 peptide | – | Ki | 620 nM
